# Assay results collected from several papers.
# “And” joins repeats or separate records; there may be more than shown. ± marks the error that the study gave.
# CD38: ADP-ribosyl cyclase/cyclic ADP-ribose hydrolase 1 (CD38, Homo sapiens, UniProt P28907)
# CXCR4: C-X-C chemokine receptor type 4 (CXCR4, Homo sapiens, UniProt P61073)
# T1: G-quadruplex DNA (Homo sapiens); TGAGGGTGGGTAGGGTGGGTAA
# T2: RNA aptamer A50U; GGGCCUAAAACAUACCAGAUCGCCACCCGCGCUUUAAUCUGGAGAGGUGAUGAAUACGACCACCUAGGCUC
SMILES,target,assay,system,conditions,scale,quantity,value
C=C1C(=O)O[C@@H]2[C@H]3C(CO)=CC(=O)C3=C(C)C[C@H](OC(=O)Cc3ccc(O)cc3)[C@@H]12,"MAL12 (Saccharomyces cerevisiae S288c, UniProt P53341)","synchronous fluorescence, Δλ 15 nm",,"up to 65.22 µM, 298 K, red-shifted from 288 nm",,Tyr emission peak wavelength,292 nm
COC(=O)CN1C(C)=Nc2ccc(Br)cc2C1c1ccccc1 (stereo not drawn),"TPR (Trypanosoma brucei brucei, UniProt P39051)",inhibitor,S427,,,ligand efficiency,0.31
NC/C(=C\F)COc1cc(Cl)cc(-c2cc(=O)[nH]c(=S)n2CC(N)=O)c1,"AOC3 (Homo sapiens, UniProt Q16853)","enzyme activity, Amplex Red H2O2",,,reference: PXS-4728 over compound,potency ratio,> 1000 fold
CCCCCC[N+](CCCCCC)(CCCCCC)CCCCCC,"Kcnk2 (Rattus norvegicus, UniProt Q920B6)","ion current, blocker, inside-out patch clamp",Xenopus oocytes,"1 µM, pH 5.0, fully open channels, slow block",reference: original current,remaining current,~50%
COc1cc(C(=O)NC2CCC(N3CCN(CC4CCC5(CCCC5)C4)CC3)CC2)c(F)cc1Nc1ncc2c(n1)N(C1CCCC1(F)F)CC(F)(F)C(=O)N2C (stereo not drawn),"ZAP70 (Homo sapiens, UniProt P43403)","cell-free assay, TR-FRET",,10 µM,,inhibition,6.09%
CC1=CC(C)(C)N=C(Nc2nc(C)c3cc(C)cc(C)c3n2)N1,CD38,"cyclase activity, fluorometric",,"50 µM, with: NGD+ substrate",reference: untreated,remaining activity,60.9 ± 2.2%
CC(=O)NCCN(CC(=O)NCCN(CC(=O)NCCN(CC(=O)NCCC(N)=O)C(=O)[C@@H](N)CCCNC(=N)N)C(=O)[C@@H](N)CCCCN)C(=O)[C@@H](N)Cc1ccccc1,HIV-1 TAR RNA,,,,,non-electrostatic TΔS°,-9.7 ± 0.526 kcal/mol
CN1C(=O)[C@@H](Cc2ccc(O)cc2)NC(=O)CNC(=O)[C@H](Cc2ccc3ccccc3c2)NC(=O)[C@H](CCCNC(=N)N)NC(=O)[C@H]1CCCNC(=O)c1ccc(CNC(=O)CN2CCN(CC(=O)O)CCN(CC(=O)O)CCN(CC(=O)O)CC2)cc1 [gallium-68 labelled],CXCR4,,Daudi,"60 min, with: 0.2 pmol tracer",,maximum cell binding,24.5 ± 1.1%
CC(=O)NCCN(CC(=O)NCCN(CC(=O)NCCN(CC(=O)NCCC(N)=O)C(=O)[C@@H](N)CCCCN)C(=O)[C@@H](N)Cc1ccccc1)C(=O)[C@@H](N)Cc1ccccc1,HIV-1 TAR RNA,,,25 °C,,binding free energy ΔG°,-8.6 ± 0.454 kcal/mol
CC(=O)N[C@@H](CC(=O)O)C(=O)N[C@H]1CSSC[C@@H](C(=O)N[C@H](C(=O)N[C@@H](Cc2ccccc2)C(=O)N[C@@H](Cc2c[nH]cn2)C(N)=O)[C@@H](C)O)NC(=O)[C@H](Cc2c[nH]c3ccccc23)NC(=O)[C@H](C(C)C)NC(=O)[C@H](CC(C)C)NC(=O)[C@H](CCC(=O)O)NC(=O)CNC(=O)[C@H](C(C)(C)C)NC(=O)[C@H](Cc2c[nH]cn2)NC(=O)[C@H](Cc2ccc(O)cc2)NC(=O)[C@H](C)NC1=O,"Immunoglobulin heavy constant gamma 1 (IGHG1, Homo sapiens, UniProt P01857)","binding, ITC",,"25 °C, with: Herceptin",,–TΔS,2.4 ± 0.3 kcal/mol
CN(C)c1ccc2c(c1)[Si](C)(C)C1=CC(=[N+](C)C)C=CC1=C2c1cc(C(=O)NCCCCCC(=O)NCCOc2cc(C(=O)Nc3cc(OCCN4CCCC4)c4ccccc4n3)nc(C(=O)Nc3cc(OCCN4CCCC4)c4ccccc4n3)c2)ccc1C(=O)[O-],"T1, G-quadruplex DNA (Homo sapiens)",single-molecule TIRF,,"250 pM, photobleaching-corrected",,dwell time,15.4 s
CC(=O)NCCN(CCC(=O)NCCN(CCC(=O)NCCN(CCC(=O)NCCC(N)=O)C(=O)[C@@H](N)Cc1ccccc1)C(=O)[C@@H](N)Cc1ccccc1)C(=O)[C@@H](N)CCCNC(=N)N,HIV-1 TAR RNA,,,,,non-electrostatic TΔS°,-0.244 ± 0.263 kcal/mol
CCN(CCCC[C@H](NC(=O)[C@H](Cc1ccc(OC)c(OC)c1)NC(=O)[C@H](C)NC(=O)[C@H](CC1CCCCC1)NC(=O)c1ccc(Br)c(N)c1)C(=O)N[C@@H](CO)C(=O)OC)C(C)C,"M-phase phosphoprotein 8, chromodomain (Homo sapiens, UniProt Q99549)",isothermal titration calorimetry,,concentration not given,,binding,no binding
CC(=O)NCCN(CC(=O)NCCN(CC(=O)NCCN(CC(=O)NCCC(N)=O)C(=O)C[C@@H](N)Cc1ccccc1)C(=O)C[C@@H](N)CCCNC(=N)N)C(=O)C[C@@H](N)Cc1ccccc1,HIV-1 TAR RNA,,,extrapolated to 1 M KCl,,non-electrostatic ΔG°,-8.174 ± 0.0717 kcal/mol
CNc1ccccc1C(=O)O[C@H]1C[C@H](n2cnc3c(N)ncnc32)O[C@@H]1COP(=O)(O)OP(=O)(O)O,"Unconventional myosin-Va (Gallus gallus, UniProt Q02440, D297C/G292C/I296C/S293C/V295G)",,,"no Mg, detailed balance",,k+pocket rate constant,4.2 s⁻¹
C=C[C@]12CCC(=O)C=C1CC[C@H]1[C@@H]3CC[C@H](C(C)=O)[C@@]3(C)CC[C@@H]12,"Membrane progesterone receptor epsilon (Paqr9, Mus musculus, UniProt Q6TCG2)",,"MDA-MB-231, GFP-tagged","10 nM, 20 min",reference: control,PKA activation,57.9 % increase
CN(C)[C@@H]1C(=O)C(C(N)=O)=C(O)[C@@]2(O)C(=O)C3=C(O)c4c(O)cccc4[C@@](C)(O)[C@H]3C[C@@H]12,"T2, RNA aptamer A50U",ITC,,"pH 7.5, 25 °C, MgCl2 10 mM",,Kd,208 nM
N=C(N)NCCC[C@H](NC(=O)[C@H](Cc1ccccc1)NC(=O)[C@@H](N)CO)C(=O)N[C@@H](CC(N)=O)C(N)=O,"NPSR1 (Homo sapiens, UniProt Q6W5P4, N107I)",agonist,CHO-Galpha16,,reference: calcium over cAMP,bias factor,7.85 and ~8
CCc1nc2cc3ccccc3cc2cc1C(=O)N1CCC[C@H]1C(=O)N[C@@H](CCC/C=C/CCC[C@H](NC(=O)[C@@H]1CCCN1C(=O)c1cc2cc3ccccc3cc2nc1CC)C(=O)N[C@@H](CCCCN)C(=O)NCCCN)C(=O)N[C@@H](CCCCN)C(=O)NCCCN,HIV-1 frameshift site RNA,SPR,,,,residence time,27 s
CC(=O)NCCN(CC(=O)NCCN(CC(=O)NCCN(CC(=O)NCCC(N)=O)C(=O)C[C@@H](N)CCCCN)C(=O)C[C@@H](N)Cc1ccccc1)C(=O)C[C@@H](N)Cc1ccccc1,HIV-1 TAR RNA,,,concentration not given,,heat capacity change ΔCp,-1.04 ± 0.19 kJ/mol/K
O=S(=O)(Nc1ccc(O)c2ccccc12)c1ccc(Cl)cc1,CD38,"cyclase activity, fluorometric",,"50 µM, with: NGD+ substrate",reference: untreated,remaining activity,24 ± 3.3%
CC(OCCCCCN1C[C@H](O)[C@@H](O)[C@H](O)[C@H]1CO)C(C)(C)C (stereo partly drawn),"Beta-glucosidase (GBA2, Homo sapiens, UniProt Q9HCG7)","enzyme activity, inhibitor, 4-MU-β-D-glucopyranoside",HEK293T cell homogenate,,reference: GCS over GBA2,selectivity ratio,~1000 fold
C=CCC1NC(=O)C=CC(=O)NC(C(N)=O)CCNC(=O)C(CCCNC(=O)c2cnccn2)NC(=O)C(Cc2ccco2)NC1=O (stereo not drawn),"AKT3 (Homo sapiens, UniProt Q9Y243)",DNA-templated library selection,,one selection round,,enrichment factor,0.97
CC[C@H](C)[C@H](NC(=O)[C@H](CO)NC(=O)[C@H](CCCCN)NC(=O)CNC(=O)[C@H](CCCCN)NC(=O)[C@H](CC(=O)O)NC(=O)[C@H](Cc1c[nH]cn1)NC(=O)[C@H](CC(C)C)NC(=O)[C@H](CC(C)C)NC(=O)[C@H](CCC(N)=O)NC(=O)[C@H](Cc1c[nH]cn1)NC(=O)[C@H](CCC(=O)O)NC(=O)[C@H](CO)NC(=O)[C@@H](NC(=O)[C@H](C)N)C(C)C)C(=O)N[C@@H](CCC(N)=O)C(=O)N[C@@H](CC(=O)O)C(=O)N[C@@H](CC(C)C)C(=O)N[C@@H](CCC(=O)O)C(=O)N[C@@H](CCCNC(=N)N)C(=O)N[C@H](C(=O)N[C@@H](CCC(=O)O)C(=O)N[C@@H](Cc1c[nH]c2ccccc12)C(=O)N[C@@H](CC(C)C)C(=O)N[C@@H](CCCNC(=N)N)C(=O)N[C@@H](CCCCN)C(=O)N[C@@H](CCCCN)C(=O)N[C@@H](CC(C)C)C(=O)N[C@@H](CCC(N)=O)C(=O)N[C@@H](CC(=O)O)C(=O)N[C@H](C(=O)N[C@@H](Cc1c[nH]cn1)C(=O)N[C@@H](CC(N)=O)C(=O)N[C@@H](Cc1ccccc1)C(=O)N[C@@H](CCCCNC(=O)c1ccc2c(c1)C1(OC2=O)c2ccc(N(C)C)cc2Oc2cc(N(C)C)ccc21)C(N)=O)C(C)C)C(C)C,"PTH1R (Homo sapiens, UniProt Q03431)","cAMP formation, agonist, GloSensor",HEK293 GP2.3,,reference: (1-34),Emax,99 ± 5%
COc1cc(OC)c2c(c1)C(=O)c1cc3oc(=O)cc(-c4ccccc4)c3c(O)c1C2=O,mushroom tyrosinase,enzyme activity,,"50 µg/mL, with: L-DOPA",,inhibition,32.53 ± 0.32%
CCc1cc(C)n2nc(-c3ccc(OCC[18F])cc3)c(CC(=O)N(CC)CC)c2n1,"Tspo (Rattus norvegicus, UniProt P16257)",two-tissue compartment model,"rat C6 glioma model, brain",60 min dynamic PET,,k2 efflux rate constant,3.1 ± 0.83 min⁻¹
Cc1ccc2ccc3ccc(C)nc3c2n1.Cc1ccc2ccc3ccc(C)nc3c2n1.O.[Cl-].[Cl-].[Cl-].[Yb+3],"Albumin (ALB, Bos taurus, UniProt P02769)",FRET,,"25 °C, excitation 280 nm",,Förster critical distance,2.3 nm
CCCCCCCC/C=C\CCCCCCCC(=O)O[C@H]1C=CCO[C@H]1COP(=O)(O)S (stereo partly drawn),"Lysophosphatidic acid receptor 6 (Homo sapiens, UniProt P43657)","agonist, TGFα shedding",,,,Emax,6.9%
O=C1CC[C@H](N2Cc3cc(-c4cnn5ccc(NC6CCC(F)(F)CC6)nc45)ccc3C2=O)C(=O)N1,"Cereblon/Casein kinase I alpha (CSNK1A1/CRBN, Homo sapiens, UniProt P48729+Q96SW2)","protein level, degrader, luciferase",MOLT-4,,,Dmax,0%
CCCCCCCC(=O)Nc1ccc(OC)nc1C,"CES1 (Homo sapiens, UniProt P23141)",substrate,,"50 µM, pH 8, 37 °C, enzyme purity 25%",,specific activity,440 pmol/min/µg
CCCCc1ccc(C2=Nn3c(nnc3-c3ccccc3OC)SC2)cc1,CXCR4,"β-arrestin recruitment, agonist",U2OS,,,Emax,12%
C[C@]12C[C@H](c3ccc(-c4ccc(C(=O)O)cc4)cc3)C3=C4CCC(=O)C=C4CC[C@H]3[C@@H]1CC[C@@]2(O)C(F)(F)C(F)(F)F,"Progesterone receptor (Rattus norvegicus, UniProt Q63449)",pregnancy termination,pregnant rat,subcutaneous,,fully effective dose,~0.5 mg/kg
CC(C)CN(NC(=O)[C@H](CCCNC(=N)N)NC(=O)[C@H](Cc1ccc(O)cc1)NC(=O)CCCCCCC(=O)N[C@@H](Cc1ccc(O)cc1)C(=O)N[C@@H](CCCNC(=N)N)C(=O)NN(CC(C)C)C(=O)N[C@@H](CCCNC(=N)N)C(=O)N[C@@H](Cc1ccc(O)cc1)C(N)=O)C(=O)N[C@@H](CCCNC(=N)N)C(=O)N[C@@H](Cc1ccc(O)cc1)C(N)=O,"NPY4R (Homo sapiens, UniProt P50391)","reporter gene, agonist",HEK293 CRE-luciferase,"concentration not given, unit not given",reference: hPP,intrinsic activity,0.75
